Measured values pooled from the literature.
Compare with care: the assays were run in different laboratories. Values joined by “and” are separate records of one study, mostly repeats; a detail may differ. Numbers after ± are the reported error.
PPARG: Peroxisome proliferator-activated receptor gamma (PPARG, Homo sapiens, UniProt P37231)
Chain of UniProt P37231 (whole entry, looked up): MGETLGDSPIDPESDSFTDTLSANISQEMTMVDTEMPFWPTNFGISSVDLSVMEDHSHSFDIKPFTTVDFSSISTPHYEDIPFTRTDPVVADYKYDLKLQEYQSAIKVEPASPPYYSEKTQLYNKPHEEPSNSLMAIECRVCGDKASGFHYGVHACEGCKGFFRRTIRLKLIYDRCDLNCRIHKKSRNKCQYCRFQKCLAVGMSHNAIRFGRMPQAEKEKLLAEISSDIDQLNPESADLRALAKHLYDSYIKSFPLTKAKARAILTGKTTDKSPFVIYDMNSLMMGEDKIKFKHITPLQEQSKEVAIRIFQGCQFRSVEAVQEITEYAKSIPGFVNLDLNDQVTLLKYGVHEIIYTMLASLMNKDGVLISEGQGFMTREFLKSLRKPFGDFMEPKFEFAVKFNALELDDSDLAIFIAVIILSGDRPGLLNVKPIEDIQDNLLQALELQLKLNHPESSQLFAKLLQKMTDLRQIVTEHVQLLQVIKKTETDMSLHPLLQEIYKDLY

O=C(NCc1ccc(OC(F)(F)F)cc1)[C@H]1CCCN(c2ncnc3[nH]c(-c4cc(F)c(F)c(F)c4)cc23)C1 — inhibition (NCI-H2228; cell growth or viability, MTT; 1 µg/mL, 72 h): 33.2%
COCCCCCNc1nc(NCCCCCCN(C)C)c2cc(NC(=O)/C=C/CN(C)C)ccc2n1 — viability (MCF7; CellTiter-Glo; 0.09766 µM, 24 h, unit not given; reference: DMSO-treated cells): 1.01 and 0.959
C=C(NC(=O)c1csc(-c2nc3c(cc2O)-c2nc(cs2)C(=O)NC(C(C)O)C(=O)NC(=C(C)OC)c2nc(cs2)C(=O)NC2c4nc(cs4)C(=O)NC(COC(=O)c4c5c6c(cccc6n4O)COC(=O)C(OC4CC(C)(O)C(N(C)C)C(C)O4)C2OC5)c2nc-3cs2)n1)C(N)=O (stereo not shown) — ED50 (Streptococcus pneumoniae; ATCC 49619, immunocompromised mice, lung infection; 24 h, bid dosing): 4.54 mg/kg
CC(=O)Oc1ccccc1C(=O)[Se]CC(=O)Nc1cccc(C(F)(F)F)c1 — GI50 (NCI60 NSCLC subpanel; NCI60 five-dose screen): 1.96 µM
COc1c(C)c(OS(=O)(=O)c2ccccc2)c(C)c(O)c1C(=O)/C=C/c1ccccc1 — selectivity index (SH-SY5Y; SRB; reference: normal over SH-SY5Y IC50): 1.42
Cc1nc(NCCOCCOCCNc2ncc(C(=O)NC3=NN(c4ccc(Cl)c(Cl)c4)CC3)c(C)n2)ncc1C(=O)NC1=NN(c2ccc(Cl)c(Cl)c2)CC1 — EC50 (cell viability; Ba/F3 expressing TEL-ABL, Mus musculus): 0.28 µM
Cc1cc(NC2CCN(C)CC2)ccc1-c1cc2c(N3CCC[C@H](C(=O)N[C@H](C)c4ccccc4)C3)ncnc2[nH]1 — inhibition (NCI-H2228; cell growth or viability, MTT; 0.04 µg/mL, 72 h): 43%
[BH3-][P+]1(c2ccccc2)CCCCC1 — IL-6 level (SW480; ELISA; IC50, 72 h): 2.9 ± 0.16 pg/mL
CN1CCN(C(=O)c2ccc(-c3cc4c(N5CCC[C@H](C(=O)NCc6ccc(OC(F)(F)F)cc6)C5)ncnc4[nH]3)cc2)CC1 — inhibition (NCI-H2228; cell growth or viability, MTT; 5 µg/mL, 72 h): 87.6%
COc1ccc(NC(=O)c2ccc3[nH]c(-c4ccc(N(C)C)cc4)nc3c2)cn1 — extracellular HMGB1 (HCT-116; 6 h, unit not given; reference: DMSO): 4.59
C=CC(=O)Nc1cccc(Cn2ncc3cnc(Nc4cnn(CCOC)c4)nc32)c1 — percent of control (EPHA6 human; binding, KINOMEscan; 100 nM; lower = stronger binding): 100%
COC1CN([C@H]2CC[C@H]([C@@]3(C)Oc4c(Cl)cc(C(=O)NCc5c(SC)cc(C)[nH]c5=O)c(C)c4O3)CC2)C1 — log2 fold change (RNA-seq, measured: KREMEN1; human, whole blood; dose not given, 24 h; reference: pretreatment baseline): 2.24
CC(C)Cn1cc(Cc2cccc(OC(C)(C)C(=O)O)c2)c2cc(F)c(C(=O)N[C@@H](C)c3cccc(C(C)(C)C)c3)cc21 — IC50 (PPARG; ligand displacement, TR-FRET): 0.0117 µM
CC(C)c1ccc(N(C)c2ccc3c(c2)OCC[C@H]3CNc2cnccc2C(=O)O)cc1 — IC50 (NCI-H82; cell growth or viability, ATP luminescence; 7 days): 0.00354 µM
CC1=C/C(=N\N=C(/S)Nc2cccnc2)CC(C)(C)C1 — Emax (LDR; silenced CMV-GFP reporter derepression, qHTS): 211%
COc1ccccc1-c1ccncc1C(=O)Nc1nnc(OCc2ccc(Cl)cc2)s1 — colony survival (PEO1 BRCA2-mutant; 0.5 µM, together with: olaparib 2 µM): 0%
CN1CCCNC(=O)c2cccc(c2)C(=O)NCCCN(C)CCCNc2cccc3c2C(=O)c2cccc(c2C3=O)NCCC1 — log2 fold change (SAS; RNA-Seq, measured: ZFYVE27 mRNA; 1 µM, 6 h; reference: untreated cells): -2.24
Cc1c(Cc2ccc(F)c(OC(C)C(=O)O)c2)c2ccc(C(=O)NC(C)c3ccc(C(C)(C)C)cc3)cc2n1CC(C)C (stereo not shown) — IC50 (PPARG; ligand displacement, TR-FRET): 0.0084 µM
Nc1ncc(-c2cc(-c3cnn(CC(F)(F)F)c3)ncc2F)nc1C(=O)NC1CNCC(F)C1 (stereo not shown) — remaining binding (CTK; KINOMEscan competition binding; 1 µM; reference: DMSO control): 56%
Cc1ncsc1-c1ccc(C(C)NC(=O)C2CC(O)CN2C(=O)C(NC(=O)CCCCCCCCCCN2CCCC(Nc3ncc(Cl)c(Nc4ccccc4S(=O)(=O)C(C)C)n3)C2)C(C)(C)C)cc1 (stereo not shown) — log2 fold change (22Rv1; RNA-seq, measured: MAFG-DT; concentration not given; reference: DMSO): -2.77
CCN(CC)CC(=O)Nc1cccc(-n2cc(-c3ccc4ccc(-c5cn(-c6cccc(NC(=O)CN(CC)CC)c6)nn5)cc4c3)nn2)c1 — fold regulation (RCC4; PCR array, measured: ENG; 5 x IC50, 2 h, normoxia; reference: untreated): 1.12
Cn1ncc2cc(-c3cncc(Cl)c3N3CCC4(CCNC4=O)CC3)ccc21 — log2 fold change (LS174T; gene expression, microarray, measured: LRRC19 mRNA; concentration not given, 4 h; reference: untreated cells): 2.76
O=C(C[Se]C(=O)c1cc2ccccc2s1)Nc1cccc(C(F)(F)F)c1 — mean TGI (NCI60 renal subpanel; total growth inhibition, inhibitor; five-dose): 3.19 µM
CNS(=O)(=O)Nc1nccc(Cc2c(C)c3ccc(Oc4ncccc4F)cc3oc2=O)c1F — IC50 (DoTc2 4510; cell viability, CellTiter-Glo; 7 days): 0.00978 µM
COc1ccc(NC(=O)C2CCCN(c3ncnc4[nH]c(-c5ccc(NC6CCN(C)CC6)cc5C)cc34)C2)cc1 (stereo not shown) — inhibition (NCI-H2228; cell growth or viability, MTT; 0.2 µg/mL, 72 h): 71%

A few entries again:
CC1=C/C(=N\N=C(/S)Nc2cccnc2)CC(C)(C)C1 — Emax (LDR; silenced CMV-GFP reporter derepression, qHTS): 211%
COc1ccccc1-c1ccncc1C(=O)Nc1nnc(OCc2ccc(Cl)cc2)s1 — colony survival (PEO1 BRCA2-mutant; 0.5 µM, together with: olaparib 2 µM): 0%
CN1CCCNC(=O)c2cccc(c2)C(=O)NCCCN(C)CCCNc2cccc3c2C(=O)c2cccc(c2C3=O)NCCC1 — log2 fold change (SAS; RNA-Seq, measured: ZFYVE27 mRNA; 1 µM, 6 h; reference: untreated cells): -2.24
